Results gathered from unrelated publications.
“And” joins repeats or separate records; there may be more than shown. ± gives the spread as reported.

| Compound | test | test system | conditions | how to read | measurement | value |
| --- | --- | --- | --- | --- | --- | --- |
| COc1ccc(C[C@@H]2NC(=O)[C@H]([C@@H](C)O)NC(=O)[C@@H]3[C@@H]4CCN3C(=O)[C@@H]3Cc5cn(c6ccc(F)cc56)CCCCCCN(Cc5ccc(cc5)CCNC(=O)[C@]5(C)CCCN5C2=O)C(=O)CCC(=O)N[C@@H](C)C(=O)N[C@H](CNC(=O)CCCCC[N+](C)(C)C)C(=O)N[C@@H](Cc2cccc(c2)CNC(=O)CO4)C(=O)N3)cc1 |  | fasted healthy humans, plasma | oral, 300 mg single dose, with 1800 mg Labrasol, geometric mean |  | Vz/F | 15900 L |
| [123I]c1cncc(OC[C@@H]2CCN2)c1 | SPECT | human, temporal lobe | intravenous bolus plus infusion, 7.6 mCi | baseline: plasma | tissue/plasma ratio | 20.1 |
| CCCCCOc1ccc(-c2cc(-c3ccc(C(=O)N[C@H]4C[C@@H](O)[C@@H](O)NC(=O)[C@@H]5[C@@H](O)[C@@H](C)CN5C(=O)[C@H]([C@H](O)CC(N)=O)NC(=O)[C@H]([C@H](O)[C@@H](O)c5ccc(O)c(OS(=O)(=O)O)c5)NC(=O)[C@@H]5C[C@@H](O)CN5C(=O)[C@H]([C@@H](C)O)NC4=O)cc3)no2)cc1 |  | human children aged 6-11 years, plasma | intravenous, 3 mg/kg once daily, day 7, mean |  | Tmax | 1.1 h |
| CC(=O)N[C@H](CCCCN)C(=O)N[C@H](CC(C)C)C(=O)N[C@@H](CCN)C(=O)N[C@H](CO)C(=O)N[C@H](CC(C)C)C(=O)N[C@H](CC(C)C)C(=O)N[C@@H](CCN)C(=O)N[C@@H](C(=O)N[C@H](CC(C)C)C(=O)N[C@H](CO)C(=O)N[C@@H](CCN)C(=O)N[C@H](C)C(=O)N[C@H](C)C(=O)N[C@H](C)C(=O)N[C@H](C)C(=O)N[C@H](C)C(=O)N[C@H](CC(C)C)C(=O)N[C@@H](CCN)C(=O)N[C@@H](C(=O)N[C@H](CC(C)C)C(=O)N[C@H](CC(C)C)C(=O)N[C@@H](CCN)C(=O)N[C@H](C)C(=O)N[C@H](CC(C)C)C(=O)N[C@H](CO)C(=O)N[C@@H](CCN)C(N)=O)[C@H](C)O)[C@H](C)O | RP-HPLC temperature profiling |  | pH 2 | baseline: random coil control | self-association parameter | 12.5 min |
| CC(=O)N[C@H](CCCCNC(=O)C(C)F)C(=O)N[C@@H](CS)C(=O)N[C@@H](CS)C(=O)N[C@@H](CCC(=O)O)C(=O)N[C@@H](Cc1c[nH]cn1)C(=O)N[C@H](Cc1ccccc1)C(=O)N[C@@H](CCCNC(=N)N)C(=O)N[C@@H](Cc1c[nH]c2ccccc12)C(=O)N[C@@H](CS)C(=O)N[C@@H](CCCNC(=N)N)C(=O)N1CCC[C@H]1C(=O)N[C@H](C(N)=O)C(C)C (stereo partly drawn) [fluorine-18 labelled] |  | C57BL/6 mice, male, B16-F10 tumour, blood | intravenous, 1 h |  | tissue uptake | 0.9 ± 0.1 %ID/g |
| O=c1[nH]c(Cc2ccccn2)nc2c1cnn2C1CCOCC1 |  | healthy men, extensive metabolizers, plasma | oral, 50 mg single dose, tablet, geometric mean |  | Cmax | 479 nM |
| O[C@H]1CCCN[C@@H]1CCCn1cnc2c(Cl)c(Cl)ccc21 |  | healthy human volunteers, plasma | oral, 25 mg, day 1, multiple ascending dose |  | Vz/F | 1040 L |
| CC(C)C(=O)OC[C@H]1O[C@@H](n2ccc(NO)nc2=O)[C@H](O)[C@@H]1O | microdialysis | pregnant rat, blood, fetus, placenta, amniotic fluid | iv, 100 mg/kg, added: NBMPR 10 mg/kg | baseline: compound alone | AUC | no effect |
| CCCCCOc1ccc(-c2ccc(-c3ccc(C(=O)N[C@H]4C[C@@H](O)[C@@H](O)NC(=O)[C@@H]5[C@@H](O)[C@@H](C)CN5C(=O)[C@H]([C@@H](C)O)NC(=O)[C@H]([C@H](O)[C@@H](O)c5ccc(O)cc5)NC(=O)[C@@H]5C[C@@H](O)CN5C(=O)[C@H]([C@@H](C)O)NC4=O)cc3)cc2)cc1 |  | human patients aged 5 to sample A years, plasma | iv, loading 3.0 mg/kg then 1.5 mg/kg daily, steady state, mean |  | Cmin,ss | 2520 ng/mL |
| O=C(NCCS)c1cccc(C(=O)NCCS)c1 |  | rat, Sprague-Dawley, male, plasma | intravenous, 1 mg/kg |  | volume of distribution at steady state | 5.5 L/kg |
| CCCCCCCCCC(=O)N[C@@H](Cc1ccccc1)C(=O)N[C@H](C(=O)NCC(=O)N[C@H](C(=O)N[C@@H](CC(C)C)C(=O)N[C@H](C(=O)N1CCC[C@H]1C(=O)N[C@@H](CC(C)C)C(=O)N[C@@H](C)C(=O)N[C@@H](CC(C)C)C(=O)NCC(=O)N[C@@H](C)C(=O)N[C@@H](CC(C)C)C(=O)N[C@H](C(=O)N[C@@H](CCCCN)C(=O)N[C@@H](CC(C)C)C(=O)N[C@@H](Cc1ccccc1)C(=O)N[C@@H](CCCCN)C(N)=O)[C@@H](C)O)[C@@H](C)CC)[C@@H](C)O)[C@@H](C)CC | reversed-phase HPLC |  | hydrophobicity measure |  | retention time | 12.3 min |
| CC(=O)[O][Pt]([NH2])([Cl])([Cl])([NH]C1CCCCC1)[O]C(C)=O |  | rhesus monkey, cerebrospinal fluid, fourth ventricle | intravenous infusion over 1 h, 6 mg/kg | baseline: start of infusion | Tmax | 1.3 h and 1.5 h and 2.1 h |
| CCCCCCCCCCCCCC[N+](C)(C)C | ultrafiltration | human serum |  |  | unbound fraction in blood | 0.171 |
| CC[C@H](C)[C@H](NC(=O)[C@H](CCCCN)NC(=O)[C@H](CCCCN)NC(=O)[C@H](CC(C)C)NC(=O)[C@H](Cc1c[nH]c2ccccc12)NC(=O)[C@H](Cc1c[nH]c2ccccc12)NC(=O)[C@@H](N)Cc1c[nH]c2ccccc12)C(=O)N[C@@H](Cc1c[nH]c2ccccc12)C(=O)O | haemolysis | human erythrocytes | 1 h, 50% haemolysis |  | LC50 | 40 µM |
| c1cc2ccc3cccc4ccc(c1)c2c34 | HPLC-fluorescence | Wistar rat, male, colon | oral, 4 mg/kg, 24 h |  | tissue concentration | 37.5 ± 13.8 ng/g |
| CSCC[C@H](NC(=O)[C@@H](NC(=O)[C@H](CO)NC(=O)CNC(=O)[C@H](C)NC(=O)[C@H](C)NC(=O)CNC(=O)[C@H](CC(C)C)NC(=O)[C@H](Cc1ccccc1)NC(=O)CNC(=O)[C@H](CC(C)C)NC(=O)[C@H](Cc1ccccc1)NC(=O)[C@H](CC(C)C)NC(=O)[C@H](C)NC(=O)CNC(=O)c1ccc2c(c1)C(=O)OC21c2ccc(O)cc2Oc2cc(O)ccc21)[C@@H](C)O)C(=O)NCC(=O)N[C@@H](C)C(=O)N[C@@H](Cc1c[nH]c2ccccc12)C(=O)N[C@@H](CO)C(=O)N[C@@H](CCC(N)=O)C(=O)N1CCC[C@H]1C(=O)N[C@@H](CCCCN)C(=O)N[C@@H](CCCCN)C(=O)N[C@@H](CCCCN)C(=O)N[C@@H](CCCNC(=N)N)C(=O)N[C@@H](CCCCN)C(=O)N[C@H](C(=O)O)C(C)C | no effect | Sprague-Dawley rat, excised skin | 50 µmol/L, 37 °C, FAM-labelled CPP conjugate | baseline: free FAM | apparent skin permeability | no effect |
| CCOCN(C(=O)CCl)c1c(C)cccc1CC | LC-MS/MS | herbicide solution | 2 h, 23 °C, added: 365 nm UV exposure |  | remaining amount | 125 ± 3.28% |
| CC[C@H](C)[C@H](NC(=O)[C@H](CC(C)C)NC(=O)[C@H](Cc1c[nH]c2ccccc12)NC(=O)[C@H](CCC(N)=O)NC(=O)[C@@H](NC(=O)[C@H](Cc1ccccc1)NC(=O)[C@H](C)NC(=O)[C@H](CCCCNC(=O)COCCOCCNC(=O)COCCOCCNC(=O)CC[C@H](NC(=O)CCCCCCCCCCCCCCCCCCC(=O)O)C(=O)O)NC(=O)[C@H](CCC(N)=O)NC(=O)[C@H](C)NC(=O)[C@@H](NC(=O)[C@H](CCCCN)NC(=O)[C@H](CC(=O)O)NC(=O)[C@H](CC(C)C)NC(=O)C(C)(C)NC(=O)[C@@H](NC(=O)[C@H](CO)NC(=O)[C@H](Cc1ccc(O)cc1)NC(=O)[C@H](CC(=O)O)NC(=O)[C@H](CO)NC(=O)[C@@H](NC(=O)[C@H](Cc1ccccc1)NC(=O)[C@@H](NC(=O)CNC(=O)[C@H](CCC(=O)O)NC(=O)C(C)(C)NC(=O)[C@@H](N)Cc1ccc(O)cc1)[C@@H](C)O)[C@@H](C)O)[C@@H](C)CC)[C@@H](C)CC)C(C)C)C(=O)N[C@@H](C)C(=O)NCC(=O)NCC(=O)N1CCC[C@H]1C(=O)N[C@@H](CO)C(=O)N[C@@H](CO)C(=O)NCC(=O)N[C@@H](C)C(=O)N1CCC[C@H]1C(=O)N1CCC[C@H]1C(=O)N1CCC[C@H]1C(=O)N[C@@H](CO)C(N)=O |  | human, moderate hepatic impairment | subcutaneous, 5 mg |  | tmax | 24 h |
| NC[C@H]1O[C@@H](O[C@@H]([C@H](NCCCC(=O)NCc2ccc(N3CCC(Oc4ccc(OC(F)(F)F)cc4)CC3)cc2)C(N)=O)[C@H]2O[C@@H](n3ccc(=O)[nH]c3=O)C(O)C2O)[C@H](O)[C@@H]1O (stereo partly drawn) |  | Caco-2 |  |  | efflux ratio | 5.5 |
| CSCC[C@H](NC(=O)[C@H](CC(=O)O)NC(=O)CNC(=O)[C@H](CCCNC(=N)N)NC(=O)[C@H](Cc1ccc(O)cc1)NC(=O)[C@H](CC(=O)O)NC(=O)[C@H](CCCNC(=N)N)NC(=O)[C@H](Cc1c[nH]c2ccccc12)NC(=O)[C@@H](NC(=O)[C@H](Cc1c[nH]c2ccccc12)NC(=O)[C@@H](N)CCCNC(=N)N)C(C)C)C(=O)NCC(=O)N[C@@H](Cc1ccccc1)C(=O)N[C@@H](CC(=O)O)C(=O)N[C@@H](Cc1c[nH]c2ccccc12)C(=O)N[C@H](C(=O)N[C@@H](Cc1c[nH]c2ccccc12)C(=O)N[C@@H](CCC(=O)O)C(=O)O)C(C)C | circular dichroism | phosphate buffer | pH 6.5 |  | Tm | 46.7 ± 0.1 °C |
| CCCCCOc1ccc(-c2ccc(-c3ccc(C(=O)N[C@H]4C[C@@H](O)[C@@H](OCC[N+](C)(C)C)NC(=O)[C@@H]5[C@@H](O)[C@@H](C)CN5C(=O)[C@H]([C@@H](C)O)NC(=O)[C@H]([C@H](O)[C@@H](O)c5ccc(O)cc5)NC(=O)[C@@H]5C[C@@H](O)CN5C(=O)[C@H]([C@@H](C)O)NC4=O)cc3)cc2)cc1 |  | healthy adult humans, plasma | subcutaneous, 10 mg, single dose, median |  | Vz/F | 78.4 L |
| NCCc1c[nH]c2ccccc12 |  | human liver mitochondrial preparation | 1 µM, 30 min, 0.5 mg/mL protein |  | percent metabolized | > 100% |
| CN[C@@](C)(C[18F])C(=O)O |  | SCID mouse DU-145 xenograft, heart | 120 min, post injection |  | tissue uptake | 3.5 ± 0.9 %ID/g |
| O=C(O)c1cc(O)c(O)c(O)c1 |  | zebrafish embryo AB wild type | immersion semi-static, 24 h |  | LC50 | > 500 µg/mL |

For quick reference, copied from above:
| Compound | test | test system | conditions | how to read | measurement | value |
| --- | --- | --- | --- | --- | --- | --- |
| COc1ccc(C[C@@H]2NC(=O)[C@H]([C@@H](C)O)NC(=O)[C@@H]3[C@@H]4CCN3C(=O)[C@@H]3Cc5cn(c6ccc(F)cc56)CCCCCCN(Cc5ccc(cc5)CCNC(=O)[C@]5(C)CCCN5C2=O)C(=O)CCC(=O)N[C@@H](C)C(=O)N[C@H](CNC(=O)CCCCC[N+](C)(C)C)C(=O)N[C@@H](Cc2cccc(c2)CNC(=O)CO4)C(=O)N3)cc1 |  | fasted healthy humans, plasma | oral, 300 mg single dose, with 1800 mg Labrasol, geometric mean |  | Vz/F | 15900 L |
| [123I]c1cncc(OC[C@@H]2CCN2)c1 | SPECT | human, temporal lobe | intravenous bolus plus infusion, 7.6 mCi | baseline: plasma | tissue/plasma ratio | 20.1 |
| CCCCCOc1ccc(-c2cc(-c3ccc(C(=O)N[C@H]4C[C@@H](O)[C@@H](O)NC(=O)[C@@H]5[C@@H](O)[C@@H](C)CN5C(=O)[C@H]([C@H](O)CC(N)=O)NC(=O)[C@H]([C@H](O)[C@@H](O)c5ccc(O)c(OS(=O)(=O)O)c5)NC(=O)[C@@H]5C[C@@H](O)CN5C(=O)[C@H]([C@@H](C)O)NC4=O)cc3)no2)cc1 |  | human children aged 6-11 years, plasma | intravenous, 3 mg/kg once daily, day 7, mean |  | Tmax | 1.1 h |
| CC(=O)N[C@H](CCCCN)C(=O)N[C@H](CC(C)C)C(=O)N[C@@H](CCN)C(=O)N[C@H](CO)C(=O)N[C@H](CC(C)C)C(=O)N[C@H](CC(C)C)C(=O)N[C@@H](CCN)C(=O)N[C@@H](C(=O)N[C@H](CC(C)C)C(=O)N[C@H](CO)C(=O)N[C@@H](CCN)C(=O)N[C@H](C)C(=O)N[C@H](C)C(=O)N[C@H](C)C(=O)N[C@H](C)C(=O)N[C@H](C)C(=O)N[C@H](CC(C)C)C(=O)N[C@@H](CCN)C(=O)N[C@@H](C(=O)N[C@H](CC(C)C)C(=O)N[C@H](CC(C)C)C(=O)N[C@@H](CCN)C(=O)N[C@H](C)C(=O)N[C@H](CC(C)C)C(=O)N[C@H](CO)C(=O)N[C@@H](CCN)C(N)=O)[C@H](C)O)[C@H](C)O | RP-HPLC temperature profiling |  | pH 2 | baseline: random coil control | self-association parameter | 12.5 min |
